Experimental data collected from several papers.
Each numbered part is a random draw from the data of one study; scales do not carry over between parts.

Study 1 — technique: aptamer microarray, sandwich; molecule type: DNA with 2'F-ANA; matrix: in vitro; concentration: 200 nM; added: Cy3 exosite-II aptamer, 400 nM; direction: higher = stronger binding; endpoint: mean fluorescence intensity; sequence: GGTTGGTGTGGTTGG
Target: Prothrombin, mature alpha-thrombin (F2, Homo sapiens, UniProt P00734)
Setting: whole 15-mer aptamer, many near background
2'F-ANA at 1 2 5 6 7 8 10 12 13 14: 71.1 a.u.
2'F-ANA at 1 5 6 7 10 11 12 13 14 15: 51.2 a.u.
2'F-ANA at 1 2 3 4 7 8 9 13 15: 134 a.u.
2'F-ANA at 1 2 6 7 8 9 11 12 13 14: 68.4 a.u.
2'F-ANA at 3 4 7 8 9 10 12: 487 a.u.

Study 2 — technique: RNA Bind-n-Seq; molecule type: RNA; matrix: in vitro; concentration: not given; setting: RNA with constant flanks, ends assumed; relative to: input RNA pool; direction: higher = stronger binding; endpoint: bound/input enrichment
Target: RING finger protein unkempt homolog, zinc fingers 1-6, GST-SBP tag (UNK, Homo sapiens, UniProt Q9C0B0, residues 30-357)
Chain of UniProt Q9C0B0 (30-357, looked up): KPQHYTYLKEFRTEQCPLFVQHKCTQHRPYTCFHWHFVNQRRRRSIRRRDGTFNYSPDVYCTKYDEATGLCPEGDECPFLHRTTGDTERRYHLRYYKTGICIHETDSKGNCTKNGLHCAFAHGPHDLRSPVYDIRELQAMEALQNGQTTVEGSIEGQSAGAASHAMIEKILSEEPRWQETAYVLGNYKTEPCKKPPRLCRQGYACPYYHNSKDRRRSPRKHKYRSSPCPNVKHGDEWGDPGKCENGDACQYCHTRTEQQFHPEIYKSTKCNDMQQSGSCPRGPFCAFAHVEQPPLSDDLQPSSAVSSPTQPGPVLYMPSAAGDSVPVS
Shared flanks, not repeated: GGGAGUUCUACAGUCCGACGAUC … CAACAGAGGAUUGAGCAUCA
AAUGGGCGGCUGGGACAGGGGAACGCUUGCAGGAUGGACCCCCUACCCCAAGAAUGGAAGUCCGGGGUGGUUGUUUCUCCAUUUAUGGCAUUGGGUUCGGAGAUGGGCCAUGAUGAAGGG: 0.266 ratio
UUCUGGUUUCCUUGGAGAAAAGCUCUGCUGCCCUGAUUAUGAACUCUAUAAUAGAGUAUACCGCUUUUGUACCUUUUUUACAGGAAGGUGACUUUCUGUAAUCAUGUGAUGUAUAUUAAA: 0.643 ratio
GCAGUGGAAUGCAGUUAUAUUUGGACCAGAAGGGACACCUUUUGAAGAUGGUACUUUUAAACCCGUAAUAGAAUUUUCUGAAGAAUAUCCAAAUAAACCACCAACUGUUAGGUUUUUAUC: 1.97 ratio
AAACUCAUCCUUAAAGGGGUCAUACUGCUGAUUGUGGACAAAGCCUUAGAAGAGCCAAAGUACCGCUCGCUGUAUGCUCAGCUAUGUCUGCGAUUGGCAGAAGAUGCACCAAACUUUGAU: 0.144 ratio
ACAUCUGACUGCUGGAUGAAGACUGUUCCAAGUUAUAACCAAACAAAUAGCUCCAUGGACUUCCGAAAUUAUAUGAUGAGAGAUGAGAAUCUGGAACCGCUGCCCAAAAACUGGGAAAUG: 0.305 ratio
ACACCUAGUGACCGUUCCAGAUAUAGAUUAGAUUUGGAAGGAAAUGAGUAUCCUAUUCACCGUACCCCAAACUGUCAUGACCAUGAACGCAACCAUAAAGUGCCUCCACCUAUUAAACCU: 0.655 ratio

Study 3 — technique: universal PBM; molecule type: double-stranded DNA, one strand shown; matrix: in vitro; concentration: not given; direction: higher = stronger binding; endpoint: E-score
Target: Sal-like protein 4, full length isoform B (SALL4, Homo sapiens, UniProt Q9UJQ4-2, residues 1-616)
Setting: 8-mer, flanks averaged, mean of replicates
Construct (chain): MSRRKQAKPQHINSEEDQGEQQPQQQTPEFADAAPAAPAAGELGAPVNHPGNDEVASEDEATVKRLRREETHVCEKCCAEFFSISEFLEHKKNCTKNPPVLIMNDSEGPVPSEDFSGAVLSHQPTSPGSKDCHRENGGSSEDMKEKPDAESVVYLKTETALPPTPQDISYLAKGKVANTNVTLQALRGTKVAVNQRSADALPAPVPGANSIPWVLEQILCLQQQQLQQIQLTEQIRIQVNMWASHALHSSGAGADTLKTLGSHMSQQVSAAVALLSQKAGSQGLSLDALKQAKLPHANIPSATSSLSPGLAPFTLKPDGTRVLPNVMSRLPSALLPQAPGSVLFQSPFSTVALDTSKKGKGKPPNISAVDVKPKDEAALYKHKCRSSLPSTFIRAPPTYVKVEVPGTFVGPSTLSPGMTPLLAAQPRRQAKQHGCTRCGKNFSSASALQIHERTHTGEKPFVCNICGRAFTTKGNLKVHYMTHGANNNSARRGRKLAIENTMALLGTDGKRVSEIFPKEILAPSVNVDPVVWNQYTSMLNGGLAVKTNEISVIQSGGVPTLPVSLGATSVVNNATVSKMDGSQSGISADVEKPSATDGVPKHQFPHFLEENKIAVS
ATAAGCAG: 0.149
CTAGGCCA: -0.188
CTGCTTCA: -0.185
AGCTAATC: 0.0471
CTCTTAAC: -0.0901
CCATTAAA: 0.151
CATATTCA: 0.345

Other studies, line by line
PhoQ, residues 284 288 289 292 302 303 AGCYAI
fold induction (PhoP, residues 12 14 15 18 19 LWHVM (Escherichia coli, UniProt P23836); Sort-seq, item: YFP reporter; E. coli; PhoQ-PhoP variant library, added: 10 µM Mg2+; relative to: high Mg2+ state, higher = stronger signaling): 19.8

Repeated from above (study 3):
CATATTCA: 0.345
CCATTAAA: 0.151
CTAGGCCA: -0.188
